Measurements of several laboratories.
Compare with care: the assays were run in different laboratories. Numbers after ± are the reported error.

COc1cccc(C=NCCCN(C)CCN(C)CCCN=Cc2cccc(OC)c2[O-])c1[O-].[67Ga+3]  tissue uptake ratio (rat; intravenous, 2 h; relative to: heart over blood): 54 ± 10
CCN(CC)c1ccc2c(-c3ccccc3C(=O)OCCOCCOCC[18F])c3ccc(=[N+](CC)CC)cc-3oc2c1  tissue uptake (rat, liver; 60 min): 0.25 ± 0.03 %ID/g
CC/C=C\C/C=C\C/C=C\C/C=C\C/C=C\CCCCOC(CC)C(=O)O (stereo not drawn)  tissue concentration (radioactivity, 14C-labelled; Wistar rat, male, subcutaneous fat; oral, 100 mg/kg, 3 days): 4 µg equivalents/g tissue
OCc1cn(Cc2ccc(-c3noc(-c4ccc(OCC[18F])c(C(F)(F)F)c4)n3)cc2)nn1  tissue uptake (Lewis rat, female, brain; intravenous, 2 h): 0.61 ± 0.05 %ID/g
O=C(O)C1CN(Cc2ccc(-c3noc(-c4ccc(OCC[18F])c(C(F)(F)F)c4)n3)cc2)C1  tissue uptake (Sprague-Dawley rat, male, normal, thymus; iv, 60 min): 0.161 ± 0.007 %ID/g
COc1cccc([O-])c1C=NCCCN(C)CCN(C)CCCN=Cc1c([O-])cccc1OC.[67Ga+3]  tissue uptake ratio (rat; intravenous, 1 min; relative to: heart over blood): 1.86 ± 0.08
OC1(C(F)(F)F)CCN(c2nc(Nc3ccnc(C(F)(F)F)c3)nc(-c3cccc(C(F)(F)F)n3)n2)C1 (stereo not drawn)  tissue concentration ratio (Sprague-Dawley rat, both sexes; oral, 10 mg/kg; relative to: bone marrow over brain): ~15.7 fold
COc1ccc(C=NCCCN(C)CCN(C)CCCN=Cc2ccc(OC)cc2[O-])c([O-])c1.[67Ga+3]  tissue uptake ratio (rat; intravenous, 2 h; relative to: heart over blood): 23.3 ± 2.7
C[C@H](CN(C)Cc1ccccc1)NC(=O)c1ccc(-c2noc(C(F)(F)[18F])n2)cc1  tissue uptake (PET imaging; female Sprague-Dawley rats, heart; intravenous, 10 min): 0.51 ± 0.27 SUV

Some of these lines once more:
C[C@H](CN(C)Cc1ccccc1)NC(=O)c1ccc(-c2noc(C(F)(F)[18F])n2)cc1  tissue uptake (PET imaging; female Sprague-Dawley rats, heart; intravenous, 10 min): 0.51 ± 0.27 SUV
